Results pooled from the literature.
Each line is one published result; not all experiments were run side by side. ± marks the error that the study gave.
Organism: Arabidopsis thaliana

SMILES = CCc1cccc2c(C(=O)COC(=O)C34CC5CC(CC(Br)(C5)C3)C4)c[nH]c12; assay = item: primary rosette branches; system = wild type; setting = 10 µM, 30-day-old plants; measurement = branch number; result = increased
SMILES = CN1C[C@H](c2cccc(C(F)(F)F)c2)[C@@H](C(=O)Nc2ccccc2F)C1=O; system = seedlings; setting = 1 µM, 24 h; measurement = N-carbamoyl-aspartate level; result = 16.7 ± 2.02 ng/g fresh weight
SMILES = COc1cccc(C(=O)Nc2cccc(-c3cn(Cc4ccccc4)nn3)c2)c1; assay = root growth; system = agar plates; measurement = IC50; result = 14 µM
SMILES = Cc1cccc2c1N(C(=O)n1ccnn1)CC2; system = kai2 mutant; setting = ambient temperature; measurement = germination inhibition concentration; result = > 30 µM
SMILES = O=C(Cc1ccc(O)cc1)N(O)Cc1ccccc1; system = Col-0, excised stem nodes; setting = 100 µM, with: NAA 1 µM; how to read = baseline: wild type; measurement = advancement of bud outgrowth; result = 1 days
SMILES = O=C(O)C1(O)Oc2cc(F)ccc2N(Cc2ccccc2)C1=O (centres unmarked); system = Col-0; setting = 50 µg/mL; measurement = seed germination; result = inhibited
SMILES = CC(C)Oc1cccc(NC(=O)CCCN2C(=O)c3ccccc3C2=O)c1; assay = reporter protein, item: DII-VENUS; setting = 50 µM; measurement = time to degradation onset; result = ≤ 10 min
SMILES = O=C(Cc1ccc(O)c(O)c1)N(O)Cc1ccc(F)cc1; system = excised Col-0 nodes; setting = 100 µM, with: NAA 1 µM; measurement = axillary bud outgrowth; result = active

For quick reference, copied from above:
SMILES = COc1cccc(C(=O)Nc2cccc(-c3cn(Cc4ccccc4)nn3)c2)c1; assay = root growth; system = agar plates; measurement = IC50; result = 14 µM
